Measured values from different studies.
Each line is one published result; not all experiments were run side by side. Numbers after ± are the reported error.
Ugcg: Ceramide glucosyltransferase (Ugcg, Mus musculus, UniProt O88693)
Sequence of UniProt O88693 (whole entry, looked up): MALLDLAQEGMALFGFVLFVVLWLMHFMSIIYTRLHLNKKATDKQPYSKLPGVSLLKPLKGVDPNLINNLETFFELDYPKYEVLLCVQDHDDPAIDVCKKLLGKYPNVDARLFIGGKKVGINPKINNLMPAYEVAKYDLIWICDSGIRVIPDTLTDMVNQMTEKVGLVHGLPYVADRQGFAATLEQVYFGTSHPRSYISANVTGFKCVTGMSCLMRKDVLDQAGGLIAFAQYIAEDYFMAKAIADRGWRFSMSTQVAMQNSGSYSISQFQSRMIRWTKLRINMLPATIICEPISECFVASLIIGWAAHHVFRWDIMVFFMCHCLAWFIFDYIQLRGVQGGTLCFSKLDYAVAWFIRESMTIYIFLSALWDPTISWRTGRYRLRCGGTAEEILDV

CC(C)(C)c1cc(-c2ccc3cccnc3n2)nc(-c2ccc3cccnc3n2)c1.COc1ccncc1.[Cl-].[Cl-].[Ru+2].c1ccc2cc3nc4c5cccnc5c5ncccc5c4nc3cc2c1 — phototherapeutic index (SK-MEL-28; light 633 nm; relative to: dark EC50 over light EC50): 143
CCNc1cc2c(cc1C)C1(c3cc(C)c(NCC)cc3O2)c2ccccc2C(=O)N1N=Cc1c[c-]c(-c2ccccn2)cc1.Cc1c(C)c(-c2ccc(-c3ccccc3)cc2)[c-](C)c1C.[Cl-].[Ir+3] — G0/G1 phase cells (A549; PI flow cytometry; 1 x IC50, 24 h): 50.78 ± 0.29%
Cn1ncc2cc(-c3cncc(Cl)c3N3CCC4(CCNC4=O)CC3)ccc21 — log2 fold change (LS174T; gene expression, microarray, refers to: TFF1 mRNA; concentration not given, 24 h; relative to: untreated cells): 3.12
NS(=O)(=O)c1cccc(-c2ccc([C@H]3[C@@H](F)[C@@H](F)C[C@@H](F)[C@H]3F)cc2)c1 — hepatic clearance (liver microsome stability; dog liver microsomes; 1 µM): 10 mL/min/kg
OC[C@@H]1[C@@H](O)[C@H](O)[C@@H](O)CN1CCCCCOCc1ccc(-c2ccc(Br)cc2)cc1 — IC50 (Ugcg; enzyme activity, inhibitor, fluorescence): 330 nM
COc1cccc(Nc2cc(=O)oc3ccccc23)c1 — calcium mobilisation signal (COS-7 (untransfected); 500 µM, unit not given; relative to: 3 µM ionomycin): 10.8 ± 2.07
COc1ccc2c(c1)OC1=C(C(=O)CCC1)C2c1c[nH]c2ccccc12 (centres unmarked) — glycerol release (3T3-L1 mature adipocytes; IC20; relative to: untreated): 118%
CNS(=O)(=O)Nc1nccc(Cc2c(C)c3ccc(Oc4ncccc4F)cc3oc2=O)c1F — IC50 (SK-CO-1; cell viability; 7 days): 2.02 nM
N#C[C@@H]1CCCN1C(=O)CNC(=O)c1ccnc2ccc(OCCCN3CCN(C(=O)CCc4ccc(O)c(CN5CCN6CC(=O)[O][Al-]([18F])([O]C(=O)C5)[O]c5ccc(CCC(=O)N7CCN(CCCOc8ccc9nccc(C(=O)NCC(=O)N%10CCC[C@H]%10C#N)c9c8)CC7)cc5C6)c4)CC3)cc12 (some centres unmarked) — internalized fraction (HT1080 cells expressing human FAP; 60 min, 37 °C): 70.5 ± 2.3%
C[C@@H]1CC[C@@H]([C@@](O)(CNCc2ccc(F)cc2)COCc2ccccc2)[C@H](OCc2ccccc2)C1 — inhibition (HeLa; cell growth or viability, MTT; 30 µM, 72 h): 97.8%
CSC(=S)N/N=C(\C)c1ccc(S(=O)(=O)N2CCC(C)CC2)cc1 — necrotic cells (MCF7; annexin V/PI; concentration not given, 72 h, at IC50): 2.15%
CCC(=CCc1c(O)cc2c(c1O)C(=O)CC(c1ccc(O)cc1OC)O2)CC (centres unmarked) — inhibition (HeLa; cell growth or viability, MTT; 3.125 µM, 48 h): 14.9%
CN1CCCNC(=O)c2cccc(c2)C(=O)NCCCN(C)CCCNc2cccc3c2C(=O)c2cccc(c2C3=O)NCCC1 — log2 fold change (SAS; RNA-Seq, refers to: DDX50 mRNA; 1 µM, 6 h; relative to: untreated cells): -0.719
CC(=O)N[C@@H](Cc1ccc(O)cc1)C(=O)N1CSC[C@H]1C(=O)N[C@@H](C)C(=O)N[C@@H](CC(=O)O)C(=O)COC(=O)c1c(C)cccc1C — cell lysis (THP-1 cells, LPS-primed; pyroptosis, LDH release; 25 µM, LPS 1 µg/mL, 4 h, added: nigericin 5 µM, 2 h): 34.2%
Cc1ncsc1-c1ccc(C(C)NC(=O)C2CC(O)CN2C(=O)C(NC(=O)CCCCCCCCCCN2CCCC(Nc3ncc(Cl)c(Nc4ccccc4S(=O)(=O)C(C)C)n3)C2)C(C)(C)C)cc1 (centres unmarked) — log2 fold change (22Rv1; RNA-seq, refers to: SURF6 mRNA; concentration not given; relative to: DMSO): -1.02
O=C(NCCO)c1ccc(C2CCCCC2)cc1 — hepatic clearance (liver microsome stability; human liver microsomes; 1 µM, without NADPH): 3.9 mL/min/kg
CCN(CC)CC(=O)Nc1cccc(-n2cc(-c3ccc4ccc(-c5cn(-c6cccc(NC(=O)CN(CC)CC)c6)nn5)cc4c3)nn2)c1 — fold regulation (RCC4; PCR angiogenesis array, refers to: MDK; 5 x IC50, 6 h, normoxia; relative to: untreated): 1.06
CCC(=CCc1c(O)cc2c(c1O)C(=O)CC(c1ccc(OC)c(O)c1)O2)CC (centres unmarked) — inhibition (HeLa; cell growth or viability, MTT; 0.781 µM, 48 h): 5.92%
CC12CCCC(NS(=O)(=O)c3cccs3)(C1)C1CC(C)(C)C1CC2 (centres unmarked) — inhibition (HT-29; cell growth or viability, CCK-8; 10 µM): < 50%
OC[C@@H]1[C@@H](O)[C@H](O)[C@@H](O)CN1CCCCCOCCc1ccsc1 — IC50 (Ugcg; enzyme activity, inhibitor; RAW264.7; in situ, added: C6-NBD-ceramide): 380 nM
COC1=C2CC(C)CC(OC)C(O)C(C)C=C(C)C(OC(N)=O)C(OC)C=CC=C(C)C(=O)NC(=CC1=O)C2=O (centres unmarked) — log fold change (Rh30; ChIP-seq, refers to: H3K36me3 peak; concentration not given, intron chr10:120787800-120842999; relative to: untreated control): -0.5
CC(=O)N1C[C@H](O)C[C@H]1C(=O)N[C@@H](CC(C)C)C(=O)N[C@@H](C)C(=O)N[C@@H](CC(=O)O)C(=O)COC(=O)c1c(C)cccc1C — cell lysis (THP-1 cells, LPS-primed; pyroptosis, LDH release; 25 µM, LPS 1 µg/mL, 4 h, added: nigericin 5 µM, 2 h): 88.5%
O=S(=O)(Nc1ccc(OC(F)(F)F)cc1)N1CCCC(C2c3ccc(F)cc3CCc3cc(F)ccc32)C1 (centres unmarked) — cell proliferation (D425; CellTiter; concentration not given, 72 h): decreased

Repeated from above:
C[C@@H]1CC[C@@H]([C@@](O)(CNCc2ccc(F)cc2)COCc2ccccc2)[C@H](OCc2ccccc2)C1 — inhibition (HeLa; cell growth or viability, MTT; 30 µM, 72 h): 97.8%
CCNc1cc2c(cc1C)C1(c3cc(C)c(NCC)cc3O2)c2ccccc2C(=O)N1N=Cc1c[c-]c(-c2ccccn2)cc1.Cc1c(C)c(-c2ccc(-c3ccccc3)cc2)[c-](C)c1C.[Cl-].[Ir+3] — G0/G1 phase cells (A549; PI flow cytometry; 1 x IC50, 24 h): 50.78 ± 0.29%
CCC(=CCc1c(O)cc2c(c1O)C(=O)CC(c1ccc(OC)c(O)c1)O2)CC (centres unmarked) — inhibition (HeLa; cell growth or viability, MTT; 0.781 µM, 48 h): 5.92%
